Results pooled from the literature.
Each numbered part is a random draw from the data of one study; scales do not carry over between parts. “And” joins repeats or separate records; there may be more than shown.
Chain of UniProt P42336 (whole entry, unmodified, looked up): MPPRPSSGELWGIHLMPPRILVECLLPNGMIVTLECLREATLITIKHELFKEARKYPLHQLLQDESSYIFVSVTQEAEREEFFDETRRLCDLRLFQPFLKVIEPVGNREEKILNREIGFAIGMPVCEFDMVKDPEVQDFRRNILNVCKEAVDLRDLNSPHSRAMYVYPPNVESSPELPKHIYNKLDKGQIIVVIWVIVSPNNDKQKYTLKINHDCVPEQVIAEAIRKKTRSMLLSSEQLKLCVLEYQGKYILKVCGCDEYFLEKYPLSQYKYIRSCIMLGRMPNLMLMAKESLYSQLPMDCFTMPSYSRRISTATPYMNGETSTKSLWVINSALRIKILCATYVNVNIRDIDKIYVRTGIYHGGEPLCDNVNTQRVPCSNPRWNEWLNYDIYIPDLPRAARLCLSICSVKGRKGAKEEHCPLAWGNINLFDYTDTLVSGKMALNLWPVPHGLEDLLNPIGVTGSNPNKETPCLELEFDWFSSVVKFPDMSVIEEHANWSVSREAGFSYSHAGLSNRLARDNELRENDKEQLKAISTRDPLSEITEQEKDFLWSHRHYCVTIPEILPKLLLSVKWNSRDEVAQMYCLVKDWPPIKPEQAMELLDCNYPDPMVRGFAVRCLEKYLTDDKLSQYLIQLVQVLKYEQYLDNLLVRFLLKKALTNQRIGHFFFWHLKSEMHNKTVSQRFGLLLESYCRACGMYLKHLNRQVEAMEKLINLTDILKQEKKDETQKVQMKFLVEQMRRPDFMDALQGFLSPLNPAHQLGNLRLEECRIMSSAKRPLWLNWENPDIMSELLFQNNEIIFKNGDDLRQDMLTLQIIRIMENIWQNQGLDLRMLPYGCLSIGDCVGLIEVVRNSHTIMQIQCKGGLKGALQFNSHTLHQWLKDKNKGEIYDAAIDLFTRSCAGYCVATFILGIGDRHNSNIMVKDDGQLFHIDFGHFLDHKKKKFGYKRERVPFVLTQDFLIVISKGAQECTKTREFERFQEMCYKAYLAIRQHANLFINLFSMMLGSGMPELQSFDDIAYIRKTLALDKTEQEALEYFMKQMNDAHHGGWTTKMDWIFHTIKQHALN

Series 1
Target: DNA polymerase theta, ATPase domain (POLQ, Homo sapiens, UniProt O75417)
Chain of UniProt O75417 (whole entry, unmodified, looked up): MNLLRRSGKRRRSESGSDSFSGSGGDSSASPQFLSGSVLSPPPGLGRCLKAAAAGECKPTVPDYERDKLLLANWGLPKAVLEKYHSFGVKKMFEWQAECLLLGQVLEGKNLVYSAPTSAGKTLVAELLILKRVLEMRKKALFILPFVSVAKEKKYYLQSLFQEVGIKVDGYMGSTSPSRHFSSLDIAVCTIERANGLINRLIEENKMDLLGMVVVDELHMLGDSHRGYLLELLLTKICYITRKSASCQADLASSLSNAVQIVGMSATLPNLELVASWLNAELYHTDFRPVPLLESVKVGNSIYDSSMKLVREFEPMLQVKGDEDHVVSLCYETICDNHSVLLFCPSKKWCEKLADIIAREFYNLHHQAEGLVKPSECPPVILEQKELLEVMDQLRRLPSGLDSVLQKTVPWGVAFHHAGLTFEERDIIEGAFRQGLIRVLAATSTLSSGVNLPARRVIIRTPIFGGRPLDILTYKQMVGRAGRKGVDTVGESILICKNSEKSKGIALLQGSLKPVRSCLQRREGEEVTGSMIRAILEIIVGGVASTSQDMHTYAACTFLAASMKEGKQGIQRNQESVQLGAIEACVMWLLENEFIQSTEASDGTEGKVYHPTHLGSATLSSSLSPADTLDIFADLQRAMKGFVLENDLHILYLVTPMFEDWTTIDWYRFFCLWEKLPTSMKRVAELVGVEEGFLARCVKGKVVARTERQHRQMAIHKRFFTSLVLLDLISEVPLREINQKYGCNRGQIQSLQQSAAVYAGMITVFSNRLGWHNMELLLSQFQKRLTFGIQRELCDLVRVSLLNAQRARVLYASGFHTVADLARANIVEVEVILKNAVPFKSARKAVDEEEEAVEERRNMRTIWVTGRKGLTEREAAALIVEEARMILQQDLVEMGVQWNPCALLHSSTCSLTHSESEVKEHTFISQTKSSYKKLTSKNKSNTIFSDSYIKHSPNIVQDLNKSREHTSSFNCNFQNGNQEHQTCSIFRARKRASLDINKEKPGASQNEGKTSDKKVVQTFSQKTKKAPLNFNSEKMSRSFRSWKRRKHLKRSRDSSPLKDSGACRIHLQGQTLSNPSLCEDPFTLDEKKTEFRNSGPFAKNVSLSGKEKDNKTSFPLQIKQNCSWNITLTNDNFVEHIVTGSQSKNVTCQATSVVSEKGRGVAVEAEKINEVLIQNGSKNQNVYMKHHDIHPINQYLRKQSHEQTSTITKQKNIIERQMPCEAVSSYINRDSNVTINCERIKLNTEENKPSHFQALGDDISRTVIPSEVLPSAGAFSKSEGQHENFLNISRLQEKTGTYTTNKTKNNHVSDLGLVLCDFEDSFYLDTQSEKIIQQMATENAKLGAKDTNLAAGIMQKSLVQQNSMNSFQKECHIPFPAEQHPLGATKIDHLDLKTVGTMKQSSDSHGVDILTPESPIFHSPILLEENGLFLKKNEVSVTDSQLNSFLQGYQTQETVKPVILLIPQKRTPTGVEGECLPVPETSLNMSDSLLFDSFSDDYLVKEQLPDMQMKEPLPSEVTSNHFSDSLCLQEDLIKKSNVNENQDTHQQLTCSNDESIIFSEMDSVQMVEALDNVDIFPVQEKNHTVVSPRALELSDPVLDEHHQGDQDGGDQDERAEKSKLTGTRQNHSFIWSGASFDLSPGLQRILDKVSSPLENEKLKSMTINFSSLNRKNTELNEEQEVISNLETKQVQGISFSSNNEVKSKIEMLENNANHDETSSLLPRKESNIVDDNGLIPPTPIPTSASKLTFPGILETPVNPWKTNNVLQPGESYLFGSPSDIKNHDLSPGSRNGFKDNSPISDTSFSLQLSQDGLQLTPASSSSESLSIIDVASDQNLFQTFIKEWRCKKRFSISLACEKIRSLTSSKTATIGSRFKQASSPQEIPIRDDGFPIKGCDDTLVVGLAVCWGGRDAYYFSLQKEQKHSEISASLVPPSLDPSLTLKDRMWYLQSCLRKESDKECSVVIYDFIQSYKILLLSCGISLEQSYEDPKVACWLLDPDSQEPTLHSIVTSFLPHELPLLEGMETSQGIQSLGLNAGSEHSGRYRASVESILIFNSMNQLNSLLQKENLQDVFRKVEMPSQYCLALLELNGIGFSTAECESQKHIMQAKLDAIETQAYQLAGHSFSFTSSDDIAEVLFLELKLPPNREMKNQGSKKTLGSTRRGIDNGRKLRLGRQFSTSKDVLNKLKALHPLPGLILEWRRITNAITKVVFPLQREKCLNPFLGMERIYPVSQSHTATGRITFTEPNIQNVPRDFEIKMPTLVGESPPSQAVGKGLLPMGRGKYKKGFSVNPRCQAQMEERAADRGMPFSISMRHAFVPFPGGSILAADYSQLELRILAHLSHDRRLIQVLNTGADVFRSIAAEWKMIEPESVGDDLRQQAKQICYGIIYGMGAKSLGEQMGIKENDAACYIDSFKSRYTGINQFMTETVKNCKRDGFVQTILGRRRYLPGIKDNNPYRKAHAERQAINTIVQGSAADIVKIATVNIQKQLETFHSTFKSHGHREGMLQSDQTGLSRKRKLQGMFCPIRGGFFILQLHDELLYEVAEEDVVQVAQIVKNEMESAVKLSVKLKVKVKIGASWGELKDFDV
Observed: enzyme activity
Mode: inhibitor
Tested at: 77 µM
Relative to: untreated
SMILES | remaining activity
CCN(CC)CCNC(=O)COc1ccc(OC)cc1 | 102%
COC(=O)C1=C(C)NC(C)=C(C(=O)OC(C)(C)CN(C)CCC(c2ccccc2)c2ccccc2)C1c1cccc([N+](=O)[O-])c1 (centres unmarked) | 90.4%
CC(C(O)c1ccc(O)cc1)N1CCC(Cc2ccccc2)CC1 (centres unmarked) | 104% and 90.7%
N#CC(C#N)=C(N)/C(C#N)=C/c1cc(O)c(O)c(O)c1 | 91%
COC(=O)[C@H](c1ccccc1Cl)N1CCc2sccc2C1 | 83.1%
CN1CCN(CCCN2c3ccccc3Sc3ccc(S(=O)(=O)N(C)C)cc32)CC1 | 103%
COc1cc(N)c(Cl)cc1C(=O)N[C@@H]1CCN(CCCOc2ccc(F)cc2)C[C@@H]1OC | 101%
CN1C(=O)C(Cc2c[nH]c3ccccc23)NC1=S (centres unmarked) | 105% and 98.6%
CNc1cc2c(Nc3cccc(Br)c3)ncnc2cn1 | 124%
CNC(=O)c1nn(C)c2c1C(C)(C)Cc1cnc(Nc3ccc(N4CCN(C)CC4)cc3)nc1-2 | 81.8%
COC(=O)c1c(C)[nH]c(C)c1C(=O)c1ccccc1Cc1ccccc1 | 105%
CN1CCN(c2cccc(Nc3nc4c(-c5ccc(S(C)(=O)=O)cc5)cccn4n3)c2)CC1 | 101%
CCCN(CC1CC1)c1nc(C)nc(Nc2c(Cl)cc(Cl)cc2Cl)c1Cl | 110%
CN(C)CC/C=C1/c2ccccc2COc2ccc(CC(=O)O)cc21 | 98.1%
COc1c2ccoc2nc2c(OC)c(OCC(O)C(C)(C)O)ccc12 (centres unmarked) | 101%
CCS(=O)(=O)N1CC(CC#N)(n2cc(-c3ncnc4[nH]ccc34)cn2)C1 | 101%
CCc1nc(N)nc(N)c1-c1ccc(Cl)cc1 | 99.8% and 97.9%

Series 2
Target: Platelet-derived growth factor receptor alpha (PDGFRA, Homo sapiens, UniProt P16234)
Chain of UniProt P16234 (whole entry, looked up): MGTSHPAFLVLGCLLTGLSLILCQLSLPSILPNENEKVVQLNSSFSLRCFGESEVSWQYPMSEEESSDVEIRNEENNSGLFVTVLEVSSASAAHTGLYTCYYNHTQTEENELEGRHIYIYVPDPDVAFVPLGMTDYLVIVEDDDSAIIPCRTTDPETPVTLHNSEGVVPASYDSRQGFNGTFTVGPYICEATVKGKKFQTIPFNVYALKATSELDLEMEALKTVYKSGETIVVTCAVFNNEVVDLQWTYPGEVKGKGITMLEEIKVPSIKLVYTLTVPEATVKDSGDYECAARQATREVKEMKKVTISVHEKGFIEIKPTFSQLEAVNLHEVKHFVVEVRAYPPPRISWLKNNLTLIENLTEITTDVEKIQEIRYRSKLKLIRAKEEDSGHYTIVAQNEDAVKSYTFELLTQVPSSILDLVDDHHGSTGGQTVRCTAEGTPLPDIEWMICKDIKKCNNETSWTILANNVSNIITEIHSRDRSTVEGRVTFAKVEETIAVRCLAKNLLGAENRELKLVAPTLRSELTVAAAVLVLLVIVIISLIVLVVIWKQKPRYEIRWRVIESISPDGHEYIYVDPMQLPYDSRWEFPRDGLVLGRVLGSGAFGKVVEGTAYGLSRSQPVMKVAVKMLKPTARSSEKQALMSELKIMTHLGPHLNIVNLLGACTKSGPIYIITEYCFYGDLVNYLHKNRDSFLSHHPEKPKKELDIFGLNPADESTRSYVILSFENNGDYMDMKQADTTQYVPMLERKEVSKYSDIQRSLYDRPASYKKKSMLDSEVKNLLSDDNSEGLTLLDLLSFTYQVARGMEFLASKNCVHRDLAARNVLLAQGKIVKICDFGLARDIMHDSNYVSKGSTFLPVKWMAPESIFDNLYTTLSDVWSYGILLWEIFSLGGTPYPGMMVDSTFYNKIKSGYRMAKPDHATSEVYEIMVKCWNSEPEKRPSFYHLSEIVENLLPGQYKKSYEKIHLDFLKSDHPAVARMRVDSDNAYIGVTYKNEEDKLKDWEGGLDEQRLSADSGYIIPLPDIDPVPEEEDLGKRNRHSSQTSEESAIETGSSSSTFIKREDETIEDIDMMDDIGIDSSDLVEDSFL
Observed: enzyme activity
Mode: inhibitor
Tested at: 0.5 µM
Relative to: control
Structure (SMILES) | remaining activity [%]
c1cc(-c2cnn3cc(-c4ccc(OCCN5CCCCC5)cc4)cnc23)ccn1 | 3.7
CC(C)(C)c1nc2c3cc[nH]c(=O)c3c3cc(F)ccc3c2[nH]1 | 92.1
Clc1ccc(Nc2nnc(Cc3ccncc3)c3ccccc23)cc1 | 33.3
C[C@@H](N)[C@H]1CC[C@H](C(=O)Nc2ccncc2)CC1 | 87.2
CNc1cc2c(Nc3cccc(Br)c3)ncnc2cn1 | 99
O=C(O)/C=C/c1cc(Br)c(Br)c(Br)c1Br | 105
Nc1nc(Nc2ccc(S(N)(=O)=O)cc2)nn1C(=S)Nc1c(F)cccc1F | 56.4
N#CC(c1ccnc(NCCc2cccnc2)n1)c1nc2ccccc2s1 (centres unmarked) | 99
CC(C)N(CCC(=O)c1ccc2ccccc2c1)Cc1ccccc1 | 96.5
CC(C)n1cnc2c(Nc3cccc(Cl)c3)nc(NCCO)nc21 | 96.4
O=C1c2ccccc2-c2nc3nnnn3nc21 | 44.1
COc1cc2c(Nc3ccc(Br)cc3F)ncnc2cc1OCC1CCN(C)CC1 | 28.6
CCN(CC)CCCCN1c2ccccc2Oc2ccc(Cl)cc21 | 102
N#C/C(=C(/N)SC1C=CC=CC1)c1cccc(C(O)c2ccncc2)c1 (centres unmarked) | 107
NC(=O)c1cccc(-c2cc(Nc3ccc(OC(F)(F)F)cc3)ncn2)c1 | 91.8
O=C1NC(=O)/C(=C/c2ccc3c(c2)OC(F)(F)O3)S1 | 103
O=C(c1ccccc1)c1ccc(N2CCOCC2)cc1O | 91.9
COc1cc2c(N3CCN(C(=O)Nc4ccc(OC(C)C)cc4)CC3)ncnc2cc1OCCCN1CCCCC1 | 11.1
O=Nc1c(-c2c(O)[nH]c3ccccc23)[nH]c2ccccc12 | 90.9
O=c1c(-c2ccc(F)cc2)c(-c2ccncc2)[nH]n1-c1ccc(Cl)cc1 | 103
FC(F)(F)c1ccc(/C=C/c2nc(COc3ccc(CCCCn4ccnn4)cc3)co2)cc1 | 104
NC(=O)c1ccc(-c2nc(-c3ccc4c(c3)OCCO4)c(-c3ccccn3)[nH]2)cc1 | 95.8
CCCCc1c(-c2ccc(O)cc2)[nH]c2nccnc12 | 95.1

Series 3
Structure (SMILES): CCOc1ccc(Nc2c3c(nc4ccccc24)CCC3)cc1
cell line | test | setting | cytotoxicity
RAW264.7 | resazurin | 0.00332 µM, 64 h | -7% and -6%
HepG2 | resazurin | 0.66 µM, 48 h | 10% and 4%
HEK293 | resazurin | 33.32 µM, 10% serum | 85% and 81%
HEK293 | resazurin | 0.166 µM, 10% serum | 2% and 1%
PMA-differentiated THP-1 macrophages | – | 0.008 µM, 64 h | 1% and 0%
HEK293 | resazurin | 0.00332 µM, 10% serum | 2% and -4%
PMA-differentiated THP-1 macrophages | – | 20 µM, 64 h | 63% and 48%
HEK293 | resazurin | 16.66 µM, 10% serum | 51% and 48%
J774.1 | resazurin | 0.32 µM | -5% and -4%

Series 4
Structure (SMILES): CO[C@H]1CC[C@H](CNc2ccc(S(=O)(=O)NC(=O)c3ccc(N4CCN(CC5=C(c6ccc(Cl)cc6)CC(C)(C)CC5)CC4)cc3Oc3cnc4[nH]ccc4c3)cc2[N+](=O)[O-])CC1
Observed: cell-free assay
Technique: competition with immobilised ligand
Tested at: 1 µM
target | remaining binding [%]
CASK (Homo sapiens, UniProt O14936) | 100
RIOK2 (Homo sapiens, UniProt Q9BVS4) | 89
MAP3K13 (Homo sapiens, UniProt O43283) | 89
MAP3K10 (Homo sapiens, UniProt Q02779) | 89
BTK (Homo sapiens, UniProt Q06187) | 100
MAPK15 (Homo sapiens, UniProt Q8TD08) | 85
TIE1 (Homo sapiens, UniProt P35590) | 100
Tyrosine-protein kinase JAK1, JH1 (JAK1, Homo sapiens, UniProt P23458) | 96
NEK1 (Homo sapiens, UniProt Q96PY6) | 77
PIK3CA (Homo sapiens, UniProt P42336, C420R) | 75

Some of these lines once more (series 4):
target | remaining binding [%]
CASK (Homo sapiens, UniProt O14936) | 100
RIOK2 (Homo sapiens, UniProt Q9BVS4) | 89
MAP3K13 (Homo sapiens, UniProt O43283) | 89
MAP3K10 (Homo sapiens, UniProt Q02779) | 89
BTK (Homo sapiens, UniProt Q06187) | 100
MAPK15 (Homo sapiens, UniProt Q8TD08) | 85
TIE1 (Homo sapiens, UniProt P35590) | 100
Tyrosine-protein kinase JAK1, JH1 (JAK1, Homo sapiens, UniProt P23458) | 96
